Published values gathered from unrelated publications.
Every numbered part comes from another study and shows a few of its results, in no order.

Sample 1
Target: Interferon regulatory factor 3, full length, phosphomimetic (IRF3, Homo sapiens, UniProt Q14653, residues 1-427, S386D/S396D/S398D/S402D/T404D/S405D)
Sequence of UniProt Q14653 (whole entry, unmodified, looked up): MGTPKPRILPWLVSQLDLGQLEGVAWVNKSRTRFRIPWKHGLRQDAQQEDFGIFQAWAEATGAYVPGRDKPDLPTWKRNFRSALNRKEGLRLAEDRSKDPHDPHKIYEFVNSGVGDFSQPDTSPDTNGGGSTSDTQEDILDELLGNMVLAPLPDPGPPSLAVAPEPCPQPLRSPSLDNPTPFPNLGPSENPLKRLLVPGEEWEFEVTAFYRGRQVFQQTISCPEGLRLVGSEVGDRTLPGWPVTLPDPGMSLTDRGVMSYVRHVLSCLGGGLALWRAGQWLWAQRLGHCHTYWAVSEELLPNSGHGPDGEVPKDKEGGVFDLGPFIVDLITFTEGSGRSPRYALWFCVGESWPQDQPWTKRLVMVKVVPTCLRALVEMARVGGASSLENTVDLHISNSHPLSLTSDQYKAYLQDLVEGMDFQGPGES
Method: protein-binding microarray
Form: double-stranded DNA, one strand shown
Matrix: in vitro
Concentration: 2540 nM top
Notes: 60-bp whole probe
With: salmon DNA 0.4 mg/ml
Relative to: random background probes
Direction: higher = stronger binding
Quantity: fitted relative affinity
Shared flanks, not repeated: GCCTAGCAC … GTCTTGATTCGCTTGACGCTGCTG
TTAGGTATGGACTATCGGTTAGTGCTA: -0.444 z-score
ATAGGACTGGGTCTCGGTTAGTGCTAG: -0.466 z-score
TTAGGTTTCGGACTGGGTCAGTGCTAG: 4.06 z-score
GACGAACTGGGGTTTCGAAACGTGCTA: 1.61 z-score
TAAGGTTTCCTTTTCCTTTAGTGCTAG: 12.2 z-score

Sample 2
Target: Histone acetyltransferase KAT6A, winged helix 2, GST fusion (KAT6A, Homo sapiens, UniProt Q92794, residues 85-181)
Method: protein binding microarray
Form: double-stranded DNA, one strand shown
Matrix: in vitro
Concentration: not given
Notes: 8-mer, flanks averaged, mean of 2 arrays, mostly near background
Relative to: not given
Direction: higher = stronger binding
Quantity: E-score
Construct (chain): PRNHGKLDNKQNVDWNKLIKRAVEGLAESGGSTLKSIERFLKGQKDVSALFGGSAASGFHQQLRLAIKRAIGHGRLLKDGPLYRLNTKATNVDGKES
CAAGTGGC: -0.0491
AACCATAC: -0.0282
ATATACTC: -0.217
AGATCCAA: 0.152
CCCAGTAC: -0.0469
CAATTGTA: -0.103
TCGCCAAA: 0.0971
CGACACAC: 0.0723

Sample 3
Target: Sal-like protein 4, full length isoform A (SALL4, Homo sapiens, UniProt Q9UJQ4, residues 1-1053)
Sequence of UniProt Q9UJQ4 (whole entry, looked up): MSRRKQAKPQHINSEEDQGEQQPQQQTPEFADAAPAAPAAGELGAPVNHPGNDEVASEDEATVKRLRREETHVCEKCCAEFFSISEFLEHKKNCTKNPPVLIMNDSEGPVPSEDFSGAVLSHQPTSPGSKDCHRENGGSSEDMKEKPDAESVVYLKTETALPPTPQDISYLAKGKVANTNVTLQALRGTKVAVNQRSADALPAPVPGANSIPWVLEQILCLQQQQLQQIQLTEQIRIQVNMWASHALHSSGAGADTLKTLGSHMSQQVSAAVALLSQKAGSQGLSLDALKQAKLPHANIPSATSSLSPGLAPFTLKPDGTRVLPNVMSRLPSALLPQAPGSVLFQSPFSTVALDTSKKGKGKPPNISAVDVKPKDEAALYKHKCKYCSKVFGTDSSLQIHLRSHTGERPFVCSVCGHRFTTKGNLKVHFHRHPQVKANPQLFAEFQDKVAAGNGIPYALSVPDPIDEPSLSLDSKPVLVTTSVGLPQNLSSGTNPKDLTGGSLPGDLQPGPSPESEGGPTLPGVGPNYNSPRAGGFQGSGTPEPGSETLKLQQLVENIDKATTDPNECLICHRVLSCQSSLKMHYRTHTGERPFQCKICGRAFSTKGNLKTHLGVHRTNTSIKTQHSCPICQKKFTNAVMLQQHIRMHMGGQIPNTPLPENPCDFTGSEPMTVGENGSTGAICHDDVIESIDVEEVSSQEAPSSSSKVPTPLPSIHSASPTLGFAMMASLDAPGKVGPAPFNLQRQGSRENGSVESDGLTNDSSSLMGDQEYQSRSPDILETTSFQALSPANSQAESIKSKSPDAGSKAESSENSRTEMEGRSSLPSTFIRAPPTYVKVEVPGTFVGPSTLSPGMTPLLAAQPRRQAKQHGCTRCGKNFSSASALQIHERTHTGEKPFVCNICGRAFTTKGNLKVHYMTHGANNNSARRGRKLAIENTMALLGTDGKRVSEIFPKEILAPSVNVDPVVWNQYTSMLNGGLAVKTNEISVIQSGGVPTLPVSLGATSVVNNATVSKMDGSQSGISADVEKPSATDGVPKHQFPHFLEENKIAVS
Method: universal PBM
Form: double-stranded DNA, one strand shown
Matrix: in vitro
Concentration: 600 nM
Notes: 8-mer, flanks averaged, mean of replicates
Direction: higher = stronger binding
Quantity: E-score
CGAGTAAA: 0.112
ACTTTATC: 0.217
ACGTGTAA: 0.156
TCCGTGAA: 0.0162
CTCTGATA: 0.175
AGCTGAAT: 0.107

Mixed results
PhoQ, residues 284 288 289 292 302 303 SNGLAW
fold induction (PhoP, residues 12 14 15 18 19 YHFSH (Escherichia coli, UniProt P23836); Sort-seq, item: YFP reporter; E. coli; PhoQ-PhoP variant library, with: 10 µM Mg2+; relative to: high Mg2+ state, higher = stronger signaling): 4.05

A few entries again (sample 1):
TTAGGTTTCGGACTGGGTCAGTGCTAG: 4.06 z-score
GACGAACTGGGGTTTCGAAACGTGCTA: 1.61 z-score
TAAGGTTTCCTTTTCCTTTAGTGCTAG: 12.2 z-score
